Published values from different studies.
Target: Cannabinoid receptor 1 (CNR1, Homo sapiens, UniProt P21554)
Sequence of UniProt P21554 (whole entry, looked up): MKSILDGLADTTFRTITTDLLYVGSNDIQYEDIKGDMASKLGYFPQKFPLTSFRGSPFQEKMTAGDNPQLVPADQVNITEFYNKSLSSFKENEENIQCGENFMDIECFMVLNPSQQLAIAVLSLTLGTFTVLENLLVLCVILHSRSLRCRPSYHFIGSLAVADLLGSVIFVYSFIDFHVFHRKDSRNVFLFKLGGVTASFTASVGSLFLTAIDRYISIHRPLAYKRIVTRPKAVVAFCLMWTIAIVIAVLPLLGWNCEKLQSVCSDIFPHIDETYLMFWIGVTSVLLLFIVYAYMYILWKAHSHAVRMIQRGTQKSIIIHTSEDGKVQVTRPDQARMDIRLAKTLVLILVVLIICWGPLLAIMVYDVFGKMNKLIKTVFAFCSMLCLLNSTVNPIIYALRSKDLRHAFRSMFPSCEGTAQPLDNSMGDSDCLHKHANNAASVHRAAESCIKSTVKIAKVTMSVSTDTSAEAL

CCCCn1cc(C(=O)c2cccc3ccccc23)c2ccccc21  Ki: 71.1 nM
CC1=C[C@H]2c3c(O)cc(CCc4ccccc4)cc3OC(C)(C)[C@H]2CC1  Ki (ligand displacement, radioligand; cell membranes): 481 nM
O=C(c1cccc2ccccc12)c1nc2ccccc2n1CCCCCF  Ki (ligand displacement in cells, radioligand): 54.1 nM
CCOC(=O)[C@](CC)(CCCSCCOCCOCCNC(=O)c1ccc(-c2c3ccc(=N)c(S(=O)(=O)O)c-3oc3c(S(=O)(=O)O)c(N)ccc23)c(C(=O)O)c1)NC(=O)c1ccc(C2CC2)c(Cc2ccc(F)cc2)n1  Ki (ligand displacement, radioligand; cell membranes): 321 nM
CN1CCCCC1Cn1c2ccccc2c2cc(C(=O)c3cccc4ccccc34)ccc21 (stereo not drawn)  Ki (ligand displacement, radioligand; cell membranes): 100 nM
CCCCCn1cc(C(=O)NC23CC4CC(CC(C4)C2)C3)c2ccccc21  Ki (ligand displacement in cells, radioligand): 67.6 nM
O=C(c1ccc2c(c1)c1ccccc1n2CCN1CCOCC1)c1cccc2ccccc12  Ki (ligand displacement, radioligand; cell membranes): 44.7 nM
CCCCCn1cc(C(=O)c2cccc3ccccc23)c2ccccc21  Ki (ligand displacement in cells, radioligand): 4.44 nM
CCCCCn1c2ccccc2c2cc(C(=O)c3ccncc3)ccc21  Ki (ligand displacement, radioligand; cell membranes): 575 nM
CCOC(=O)C(CC)(CC)NC(=O)c1ccc(N2CC(OC)C2)c(OC[C@H]2C[C@@H]2CO)n1  Ki (ligand displacement, radioligand; cell membranes): 721 nM
CCCCCn1cc(C(=O)c2ccc(CC)c3ccccc23)c2ccccc21  Ki (ligand displacement, radioligand; cell membranes): 26 nM
O=C(c1ccc2c(c1)c1ccccc1n2CC1CCOCC1)c1cccc2ccccc12  Ki (ligand displacement, radioligand; cell membranes): 4.79 nM
